# Assay results gathered from unrelated publications.
# Every numbered part comes from another study and shows a few of its results, in no order.

# Series 1
# Target: RING finger protein unkempt homolog, zinc fingers 1-6, GST-SBP tag (UNK, Homo sapiens, UniProt Q9C0B0, residues 30-357)
# Method: RNA Bind-n-Seq
# Molecule type: RNA
# Sample: in vitro
# Concentration: not given
# Setting: RNA with constant flanks, human and mouse sites, ends assumed
# Reference: input RNA pool
# Reading: higher = stronger binding
# Shared flanks, not repeated: GGGAGUUCUACAGUCCGACGAUC … CAACAGAGGAUUGAGCAUCA
# Residues (chain): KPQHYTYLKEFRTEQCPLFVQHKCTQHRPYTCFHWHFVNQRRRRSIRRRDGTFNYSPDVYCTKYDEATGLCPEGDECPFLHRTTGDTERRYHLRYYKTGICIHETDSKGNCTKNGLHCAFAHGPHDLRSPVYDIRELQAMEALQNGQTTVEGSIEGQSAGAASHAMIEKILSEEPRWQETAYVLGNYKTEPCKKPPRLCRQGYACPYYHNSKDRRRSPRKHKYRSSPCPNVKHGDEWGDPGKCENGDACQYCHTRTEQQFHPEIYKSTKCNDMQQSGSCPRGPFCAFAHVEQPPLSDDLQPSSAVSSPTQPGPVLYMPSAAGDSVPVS
Oligonucleotide,bound/input enrichment
AUGCAGUAUGAGACCAACAGCUUGGACUUCAAAGUCGGGGCGGAUGGGACAGUCUUCGCCACUAGGGAGUUGAAGAUCCCCUCAGAGCAGGUGGCCUUUACCGUCACUGCGCGGGAACGC,0.0936 ratio
GUUUUUGGCAAACAUGUCAGCAACGCACCGCUUACUAAACUGCCGAUCAAAUGUUUCCUAGAUUUCAAAGCAGGAGGAUCCCUCUGCCAUAUUCUUGCAGCUGCCUACAAAUUCAAGAGU,0.234 ratio
CACAGAUCCUCCCUGUCAUGCCACAUUUCACUGAUUGGAAUGUGGAAAUGGAAAAGGAAUUUAGGAUGUGCAUUUUCACCUGAGGUUUCCCUGCAUCCCUGCAGUGCCAAAGCCCCACCU,0.189 ratio
GUGCCCCGGCACCUCCGCGGGCGGCGGGCGACUGGCUCUGCCGCAACUGCCGCCUCCUCUCCCGCCGCGGCGGCCGGCGAUAGCCCGGCGCUCAUGACAGAUCCCUGCAUGUCACUGAGU,0.649 ratio
AAUGCUAAAGGUAUAUCGUAAGGGUAGUGUUUGUUUUUGAACGAUAAUUUAGAAGUUCUCAUAGAAAGCGUAUAACAUAGGUCUUCAGAAACUAUAAAAGAAUUUUCAUAUAGUAUUAAA,16.7 ratio
CCAUAUGAAAUGUGUAGCAGUGGCUUGGUACAAGCACUUCUUACUGUGUUAAACAAUAGCAUGGAUUUGGAUAUGAAACAAGAUUGUAGUCAACUGGUAGAAAGAAUAAAUGUUUUUAAA,12.5 ratio
GUCUGGGGUACACCUGGACAGGUGUAUGAUGUGGAGGAGGUGGAUGUGAAAGAUCCUAACUAUGAUGAUGACCAGGAGAACUGUGUUUAUGAAACUGUAGUUUUGCCUUUGGAUGAAAGG,0.39 ratio
CACAAACCUAAUGGACAGCAUGAGAUUUCCUUCAGCGUUGCAGAUACUGAAGUGACUUCUAGCAUAUCAAUCAAUUCUUCCGAUGUACCUGAAGUCACCCAGUCAGAGAAUGUUGGAUCA,0.145 ratio

# Series 2
# Target: Histone acetyltransferase KAT6A, both winged helices, GST fusion (KAT6A, Homo sapiens, UniProt Q92794, residues 1-181)
# Method: protein binding microarray
# Molecule type: double-stranded DNA, one strand shown
# Sample: in vitro
# Concentration: not given
# Setting: 8-mer, flanks averaged, mean of 2 arrays, mostly near background
# Reference: not given
# Reading: higher = stronger binding
# Target sequence (chain): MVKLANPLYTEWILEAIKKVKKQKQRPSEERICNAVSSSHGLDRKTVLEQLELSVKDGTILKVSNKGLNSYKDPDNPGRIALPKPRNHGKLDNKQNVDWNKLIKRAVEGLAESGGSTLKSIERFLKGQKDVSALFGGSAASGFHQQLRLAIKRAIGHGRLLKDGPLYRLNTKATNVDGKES
Oligonucleotide,E-score
GTACCCCA,-0.0905
AACCAGAT,-0.177
CTCGTATC,-0.12
CGCTTACA,0.113
CACTAGGA,-0.0837
CGGGCTCA,0.124
CAGGCTTA,-0.22
AAGCGCGA,0.235
GGCATCAA,-0.0356
CTGGTTAA,-0.0643
CACGAAGA,-0.0755
ACATGCTC,0.0347
ACGCCTGG,-0.0247
AGCAGGTA,-0.102
ATATGAAA,-0.033
CCTCAGTA,-0.134
AGAGAAAA,-0.00411
GTATAAAC,0.00793
GAAAGGAC,-0.0216
GTCATGAC,0.145
CTTCCGAC,0.115
ACGGGCCC,0.276
ATAGATTG,-0.124
GAACTCAC,-0.209
GGAGCTGA,-0.136

# Series 3
# Organism: Saccharomyces cerevisiae
# Effect on: peptide binding
# Method: yeast competitive growth sequencing
# Molecule type: peptide
# Strain: cyclin-Cln2 fusion strain
# Concentration: concentration not given
# Setting: RxL motif peptides
# Reading: direction not given
Molecule,binding score
SNARRSLNFGGST,1.43
SFEPRNLLSLFED,0.585
TKVRRNLFNQELL,1.45

# Series 4
# Target: Ras GTPase-activating protein-binding protein 1, RRM domain (G3BP1, Homo sapiens, UniProt Q13283)
# Sequence of UniProt Q13283 (whole entry, looked up): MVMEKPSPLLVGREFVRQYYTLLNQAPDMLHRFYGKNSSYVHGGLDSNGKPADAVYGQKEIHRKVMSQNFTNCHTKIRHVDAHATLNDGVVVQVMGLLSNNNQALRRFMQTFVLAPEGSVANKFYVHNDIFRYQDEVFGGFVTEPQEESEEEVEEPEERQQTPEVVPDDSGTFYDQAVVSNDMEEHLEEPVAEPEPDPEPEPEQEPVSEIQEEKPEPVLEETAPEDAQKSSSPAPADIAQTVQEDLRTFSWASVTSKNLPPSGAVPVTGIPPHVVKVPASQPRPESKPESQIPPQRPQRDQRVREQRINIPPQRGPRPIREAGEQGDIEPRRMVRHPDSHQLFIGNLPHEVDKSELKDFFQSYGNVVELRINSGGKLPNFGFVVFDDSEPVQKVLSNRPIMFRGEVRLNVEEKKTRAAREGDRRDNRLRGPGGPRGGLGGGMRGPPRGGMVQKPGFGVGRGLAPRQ
# Method: RNA Bind-n-Seq
# Molecule type: RNA
# Sample: in vitro
# Concentration: 1 µM
# Setting: whole 134-nt RNA, ends assumed
# Together with: 150 mM KCl
# Reference: input library
# Reading: higher = stronger binding
# Shared flanks, not repeated: GGGAGUUCUACAGUCCGACGAUC … UGGAAUUCUCGGGUGUCAAGG
Oligonucleotide,log2 enrichment
UGCUGGAGUGGCAGAAGACUUUUGAGGAGAAGCUCACGCCGUUGCUGAGUGUGCGGGAGUCACUCUCAGAGGAAGAGGCCCAGAAGAUGG,-0.43
CCUCAAGUCCUGUGCUACACAUCGUAUGUACCGAAUCGGGAGGGAGGGAGGGGAAAGUAUUAUGUUACGCCGUUCGGAUCUGCACUUCCA,1.26
UCCUGUGCUACACAUCGUAUGUACCGAAUCGGGGAGGGGUUUUUGGGGAAAAAAAGGGGAAAGUAUUAUGUUACGCCGUUCGGAUCUGCA,0.656
CAAGUCCUGUGCUACACAUCGUAUGUACCGAAUCGGGCCCCGGCCCCGGCCCCGGAAAGUAUUAUGUUACGCCGUUCGGAUCUGCACUUC,-1.4
CUGUGCUACACAUCGUAUGUACCGAAUCGGGGAAAAAAAGGGGUUUGGGGUUUUUUUGGGGAAAGUAUUAUGUUACGCCGUUCGGAUCUG,1.04
AGUCCUGUGCUACACAUCGUAUGUACCGAAUCGGGCCCCCGGCCCCCGGCCCCCGGGAAAGUAUUAUGUUACGCCGUUCGGAUCUGCACU,-0.61
CCUCAAGUCCUGUGCUACACAUCGUAUGUACCGAAUCGGGGUGGGUGGGGUGGAAAGUAUUAUGUUACGCCGUUCGGAUCUGCACUUCCA,0.113
CACAGACAACACGCACCCACACAGACACAGAGGGAAGGGGUUGGGAUGGCGACAGGGUGCACAGCAGGGCGGGGUAGGACCCCAGCCCCU,-0.0931
UCAAGUCCUGUGCUACACAUCGUAUGUACCGAAUCGGGCCCGGGCCCGGGCCCGGAAAGUAUUAUGUUACGCCGUUCGGAUCUGCACUUC,-0.984

# Series 5
# Target: RNA binding protein fox-1 homolog 2, RRM domain, GST-SBP tag (RBFOX2, Homo sapiens, UniProt O43251-10, residues 100-194)
# Method: RNA Bind-n-Seq
# Molecule type: RNA
# Sample: in vitro
# Concentration: 365 nM
# Setting: natural RNA segment, single round, ends assumed
# Reference: no-protein control
# Reading: higher = stronger binding
# Shared flanks, not repeated: GGGAGUUCUACAGUCCGACGAUC … UGGAAUUCUCGGGUGCCAA
# Residues (chain): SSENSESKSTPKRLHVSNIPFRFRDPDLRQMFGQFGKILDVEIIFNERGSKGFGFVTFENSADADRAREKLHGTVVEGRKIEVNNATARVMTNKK
Oligonucleotide,RBNS enrichment (R)
CACUGAUACCUGCGUUAACAUACUUUGUUUUGCCUAGAGAGGGGCAAUAAAAAUGAACCAAAGGAUAUUUCCAGAAAGGAUUAAGAAAGCUGUUUAAGAAGGCCAUGACU,0.383
CUUUCCACCAUGUCCUGGGGGCCUGGUUAGUCCCUGGCCAUGGAGUGUGGUGGGAUGGCUGUCUUCUCUCUCCUUGUUACCUCCCUAGGAAAGAAGGGGUUGCUUUAUGG,0.302
UUUACCAAGCACCACCCUAACCUCUAAAAUCAGAGUUCAGCUGAGCUAUUAGUAGUGGGUGGUCACCAUGACUGCCCAAGCUACAACAGCUGAUCUCUUCCCAGGUCACC,0.408
UACCCCACAGCUCUGUUCCAUGUAAGUUGCCAACAGUUUCACUGAACAGUGGGGUAUGUGAUGGUUUUGGCAUGACAUCUUCAGUAUGAGGGGGACAGUUUGACUUCACU,0.593
UUCCCAGCUCUCCCCAGUGUCCAGAUCCUCUCUGGAAGAGACUAUAAAAUAAACGUGGGUGCCAGGGCCUGCCUGUCUGCUUCAUUAUCCUUUGGGUGGGCAUAGGGGGA,0.672
AUUAUAAUGACAGAAGAAAUGUUGUUUAGACUAUUAUUUUUGUUCGACUCUAAAAGAUUUGCCAAAUAACAAAAGCAUACAAUGCAUACUGUUGGAGAACAAGAAUGCUA,1.09
UAUUUUAAGAAAUAACAGAAAGCCUGGGUGACAUUUGGGAGACAUGUGACAUUUAUAUAUUGAAUUAAUAUCCCUACAUGUAUUGCACAUUGUAAAAAGUUUUAGUUUUG,0.777
CACUGAUUCGGUGUUUUUGCAGUGCAUUCAACUUCUACAGAAGUUAACAUAUAAUGUCAAAAUUUUCUAUUCUGGUGCCAAUAUAGAUGAAUUAAUUACGUUCCUGAUAG,0.418

# Excerpt of the above (series 2):
Oligonucleotide,E-score
CTTCCGAC,0.115
CCTCAGTA,-0.134
ACGCCTGG,-0.0247
CACTAGGA,-0.0837
ATAGATTG,-0.124
ACGGGCCC,0.276
GAACTCAC,-0.209
